Published values of several laboratories.
Numbered parts are unrelated; each lists some results of a single study. Substitutions count along the parent as printed.

Sample 1 — technique: protein binding microarray; molecule type: double-stranded DNA, one strand shown; medium: in vitro; concentration: not given; baseline: not given; direction: higher = stronger binding
Target: Histone acetyltransferase KAT6A, winged helix 2, GST fusion (KAT6A, Homo sapiens, UniProt Q92794, residues 85-181)
Setting: 8-mer, flanks averaged, mean of 2 arrays, mostly near background
Target sequence (chain): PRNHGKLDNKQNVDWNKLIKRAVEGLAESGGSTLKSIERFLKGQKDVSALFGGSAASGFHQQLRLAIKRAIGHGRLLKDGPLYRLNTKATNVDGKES
| Sequence | E-score |
| --- | --- |
| GAGGCTCA | -0.0457 |
| CTAGGTGA | -0.217 |
| AATGTAAG | -0.127 |
| CCAGGAAC | -0.0478 |
| AAGGTGGA | 0.0576 |
| TCAGATAA | 0.0253 |
| AGAGGGAG | -0.0975 |
| TGCATGAA | -0.0028 |
| AGGCCTTC | 0.0267 |
| CTCGCCCC | 0.165 |
| AATGTATG | -0.081 |
| CACAAATG | -0.104 |
| GCGGTATA | -0.0477 |
| CCAAAATC | 0.0984 |
| AAAGTCTG | -0.198 |
| AAAAAATG | 0.166 |
| AGCATGGA | 0.0201 |
| CGCAAGGA | 0.0549 |
| AAGGGGCT | 0.0796 |

Sample 2 — technique: DHFR PCA, dose-response; medium: yeast; setting: Hill fit, mean, not affinity; with: (+)-ABA, dose series; direction: lower = more sensitive
Target: ABI1, truncated, D143A, DHFR fusion (Arabidopsis thaliana, UniProt P49597)
Starting sequence: PYL1, truncated, DHFR fusion (Arabidopsis thaliana, UniProt Q8VZS8); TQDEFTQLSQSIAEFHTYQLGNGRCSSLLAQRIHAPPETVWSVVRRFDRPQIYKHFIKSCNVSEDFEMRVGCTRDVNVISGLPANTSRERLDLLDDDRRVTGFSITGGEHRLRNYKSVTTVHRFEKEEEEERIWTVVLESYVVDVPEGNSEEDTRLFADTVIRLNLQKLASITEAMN
| Substitution | ABA EC50 |
| --- | --- |
| L20Q | 1.32 µM |
| R88M | 4.4 µM |
| H34F | 4.45 µM |
| Q31S | 95.3 µM |
| R155E | 89.2 µM |
| S11T | 2.28 µM |
| E14G | 51.9 µM |
| E38W | 15.7 µM |
| E89Q | 765 µM |
| D95F | 96.7 µM |
| A13Y | 9.26 µM |
| H34V | 6.13 µM |
| M176G | 2 µM |
| E151N | 5.06 µM |
| E109V | 7.66 µM |
| R113M | 3.44 µM |
| A175F | 4.47 µM |
| I57M | 65.3 µM |
| V143M | 22.1 µM |
| R46D | 60.8 µM |
| S9T | 2.55 µM |
| R98C | 27.9 µM |
| D92S | 88 µM |

Sample 3 — technique: EMSA with sequencing; molecule type: double-stranded DNA, one strand shown; medium: in vitro; concentration: 10 and 20 nM; baseline: negative control set to 0; direction: higher = stronger binding
Target: Hepatocyte nuclear factor 3-alpha (Foxa1, Mus musculus, UniProt P35582, residues 1-468, full length assumed)
Setting: whole designed probe, mean of two concentrations, ends assumed
All sequences stand within: GTGAGCGGTGCCCATTGATGGGGAAC … TTTCACTGGGATCGTGGGGAC
Residues (chain): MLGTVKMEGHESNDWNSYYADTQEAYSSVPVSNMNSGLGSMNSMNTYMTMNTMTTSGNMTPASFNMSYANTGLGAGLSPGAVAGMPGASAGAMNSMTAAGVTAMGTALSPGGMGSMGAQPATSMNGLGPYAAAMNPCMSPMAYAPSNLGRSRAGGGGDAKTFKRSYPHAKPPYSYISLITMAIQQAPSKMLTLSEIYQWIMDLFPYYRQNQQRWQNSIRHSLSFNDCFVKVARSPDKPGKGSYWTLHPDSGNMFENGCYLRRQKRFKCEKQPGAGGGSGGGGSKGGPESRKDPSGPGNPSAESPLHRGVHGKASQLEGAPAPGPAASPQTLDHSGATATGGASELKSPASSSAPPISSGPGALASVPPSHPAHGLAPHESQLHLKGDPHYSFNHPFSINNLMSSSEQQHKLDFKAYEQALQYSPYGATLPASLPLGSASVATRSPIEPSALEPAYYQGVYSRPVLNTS
| Sequence | normalised bound fraction [ratio] |
| --- | --- |
| TCGGCCAGCCTGGCTTCTGCGCCCCGCCAGGAGGTCGCGGAGCGGAGCGCGGCCAGGAAGTGAGCTGAGAGTGACAGCTCCCCCCACGCTGTTAGATTATTCATGACTCATTCTCTCCACACACTGGCTCTTCTTTCTTTCGGGAGGAGGGGAGAAAGGAGCGGGAGGGCGGGCGGGCAGGGGAGAGGCAGGC | 0.00269 |
| ATCTTCCCCCTCTTCCTTGCCCCACCAGCTCACCTTCCCGGGTCAAAGTAAACAAGTGTTTACTTTGAAGCCGGCATTCGTTAACCCTCTTCTGGCGCAAACTGCTGTTTACTTTGGATCTAACATGGTCCTTTGGCGACGCCAGGCTCCGGGAGAGCAAAGCACCGTGTCAGGGCCATGATCCGGGGTGGCC | 0.508 |
| TCTTTTTCAGTATGACCATGCTTCCCACAGTTAAAATAAGCTCCAGGAAATGGAGTATTTCTTTTATCCACTCTCAGTTCTGCCATTGCCTGTGCCAACAAAGTAGCTTTATGCAGATTACCTCCGATACCATCACAGGCCTTGATATAATCAACTAAATGTGCTTTCCCTCTAATAGGTCACAGAGCAGCCT | -0.0375 |
| ATCTTCCCCCTCTTCCTTGCCCCACCAGCTCACCTTCCCGGGTATATTGGAGATAGGAAATTAATATAAGCCGGCATTCGTTAACCCTCTTCTGGCGCAAACTGCTGTTTGCTCTGGATGAATCATGGTCCTTTGGCGACGCCAGGCTCCGGGAGAGCAAAGCACCGTGTCAGGGCCATGATCCGGGGTGGCC | 0.109 |
| TGTATCCATCTGGGCAGTATCTTCTCTGGGCCTGGCCTGTCATAGGTGCTTCAGGTTTCCCCATTTGAACCAGATACCAGTCGGGTTACCGGATGTTTGCTTAAAATGAGTCATAATTCCGGCTTCCTGCTTGTGCTGCTTCCAGCTAGGACTGATCGAATCAGTCTGGATTTTCCTTGGGGTGATCCGCAGG | 0.121 |

Sample 4 — target: CCNA1, cyclin fold, Cln2 fusion (human); technique: yeast growth competition, sequencing; medium: yeast; setting: weak parent motif; baseline: not given; direction: higher = stronger binding
Starting sequence: PKMYT1 docking peptide (human); SFEPRNLLSLFED
| Substitution | normalised enrichment score |
| --- | --- |
| SFEPRNLQSLFED [L8Q] | 0.171 |
| SFEPRNCLSLFED [L7C] | 0.348 |
| SFEPRNLLSYFED [L10Y] | 0.106 |
| SFEPRSLLSLFED [N6S] | 0.204 |
| SPEPRNLLSLFED [F2P] | 0.111 |
| SFEPINLLSLFED [R5I] | 0.268 |
| SFEPRNLLGLFED [S9G] | 0.0832 |
| SFEPRNGLSLFED [L7G] | 0.203 |
| SFEPRNLLSLYED [F11Y] | 0.484 |
| HFEPRNLLSLFED [S1H] | 0.105 |
| SFEPPNLLSLFED [R5P] | -0.095 |
| SFEPRNLLSHFED [L10H] | 0.0517 |
| SFEPRNLLSLFEY [D13Y] | 0.187 |
| SFEPRNLPSLFED [L8P] | 0.155 |
| SFEPRNLTSLFED [L8T] | 0.461 |
| SFEPRNLLSLFEE [D13E] | -0.0608 |

Sample 5 — technique: aptamer microarray, sandwich; molecule type: DNA with 2'F-ANA; medium: in vitro; concentration: 200 nM; with: Cy3 exosite-II aptamer, 400 nM; direction: higher = stronger binding; sequence: GGTTGGTGTGGTTGG
Target: Prothrombin, mature alpha-thrombin (F2, Homo sapiens, UniProt P00734)
Setting: whole 15-mer aptamer, many near background
| Modification | mean fluorescence intensity |
| --- | --- |
| 2'F-ANA at 1 4 9 13 14 | 150 a.u. |
| 2'F-ANA at 1 3 4 6 7 8 10 11 14 | 53.9 a.u. |
| 2'F-ANA at 2 7 10 12 13 14 | 89.2 a.u. |
| 2'F-ANA at 1 2 3 4 6 10 12 | 75.4 a.u. |
| 2'F-ANA at 1 2 5 8 10 12 | 49 a.u. |
| 2'F-ANA at 4 5 6 10 11 12 13 | 49.1 a.u. |
| 2'F-ANA at 2 4 5 6 7 15 | 62.3 a.u. |
| 2'F-ANA at 2 3 4 5 9 11 14 15 | 53.3 a.u. |
| 2'F-ANA at 2 5 9 11 12 13 14 | 113 a.u. |
| 2'F-ANA at 1 5 6 7 9 11 12 13 15 | 62.7 a.u. |
| 2'F-ANA at 5 6 7 8 11 | 71.9 a.u. |
| 2'F-ANA at 1 2 4 6 7 8 9 10 11 14 | 106 a.u. |
| 2'F-ANA at 1 2 3 4 5 7 10 15 | 49 a.u. |
| 2'F-ANA at 1 3 4 6 13 14 15 | 89.6 a.u. |
| 2'F-ANA at 1 2 5 7 8 9 11 14 15 | 52.2 a.u. |
| 2'F-ANA at 3 4 5 6 7 14 | 51.3 a.u. |
| 2'F-ANA at 2 4 5 7 8 9 12 14 | 59.1 a.u. |
| 2'F-ANA at 3 4 10 11 12 15 | 354 a.u. |
| 2'F-ANA at 3 4 5 7 9 10 11 15 | 51.2 a.u. |
| 2'F-ANA at 2 4 5 8 9 12 | 163 a.u. |

Sample 6 — technique: competition protein-binding microarray; molecule type: double-stranded DNA, one strand shown; medium: in vitro; concentration: 2 µM; with: Pho4 competitor, 0.05 µM; direction: higher = stronger binding; all sequences stand within: … GTCTTGATTCGCTTGACGCTGCTG
Target: Centromere-binding protein 1, full length, His-tagged (CBF1, Saccharomyces cerevisiae, UniProt P17106, residues 1-351)
Sequence of UniProt P17106 (whole entry, looked up): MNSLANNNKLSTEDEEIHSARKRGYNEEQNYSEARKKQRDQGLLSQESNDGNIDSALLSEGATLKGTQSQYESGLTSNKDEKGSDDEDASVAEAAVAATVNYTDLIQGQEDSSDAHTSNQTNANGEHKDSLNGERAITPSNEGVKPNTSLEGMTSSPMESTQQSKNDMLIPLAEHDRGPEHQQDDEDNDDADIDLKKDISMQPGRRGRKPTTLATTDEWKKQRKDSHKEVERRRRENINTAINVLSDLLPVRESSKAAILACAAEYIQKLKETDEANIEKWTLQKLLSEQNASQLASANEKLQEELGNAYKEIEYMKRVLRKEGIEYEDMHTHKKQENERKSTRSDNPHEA
Setting: whole 60-bp probe, lowest competitor level
| Sequence | fluorescence intensity [a.u.] |
| --- | --- |
| GTTGACAAACCCGGCCACGTGACTCGAGCTTAGAAG | 7450 |
| TGCGCAACAACTTGATTTGTGGGTGTATGTCTAGAA | 72.2 |
| TATATATGCATTCACCACGTTCCCGTTAGTCAAACG | 103 |
| GCTTGGAAGTCTCACCACGGGCAAATCTTCTTCTAA | 65.8 |
| CGTCCTAGTGATTGTCACAAGACTTCCATGAGGAAG | 144 |
| AGTGTCTGGGATGCGCTCGTGACGGTCGGCAGAGCA | 160 |
| GTATATTAAAGGCTGCATGTGGCTACGTCTATTAAA | 99.3 |
| AAATTACTAAGTTGTCACGCCACTTACCCCGTATGA | 331 |
| TGCGCAACAACTTGCATCGTGGGTGTATGTCTAGAA | 82.3 |
| TCTTTACGGGCAGATGCTGTCTCCACTATTAACTTG | 71.6 |
| CTTCTGTAAATTTGTCACCAGACTTGACGCGCCCCG | 90.4 |
| GTCTTGTCTCATTTTCACGTGGCATTCCCCACTTCA | 689 |
| CATACCCAACCTTGGTCGGTGGGTGAAGATATTTGT | 59 |
| CGTCCTAGCGATTGAAGGGTGGGTGCCATGAGGAAG | 62.6 |
| CTTCTGTAAATTTGGATTGTGGGTGGACGCGCCCCG | 88.1 |
| GAATTTGAGGAGTTCCACGTGCCAGAAAGGATTATT | 1030 |
| CTAACGAAGGTTTGGTACGTGGGTGACAAGCCAAGT | 60 |
| TTAAGCCAAATTTAGCACATGCAGTGGCAGTGGCAA | 110 |
| TGCGCAACAACTTGATCAGTGGGTGTATGTCTAGAA | 69 |
| CTGGGGATGTTTCCGCACATGAGGGGGGCAGAGGTT | 176 |
| CTTTTCCTTGTTATCCTCGTGTGTTAAATAGATAAT | 125 |
